Measured values from different studies.
A part holds a random share of what one study measured.

Set 1 — technique: RNA Bind-n-Seq; molecule type: RNA; medium: in vitro; concentration: 365 nM; relative to: no-protein control; reading: higher = stronger binding
Target: RNA binding protein fox-1 homolog 2, RRM domain, GST-SBP tag (RBFOX2, Homo sapiens, UniProt O43251-10, residues 100-194)
Notes: natural RNA segment, single round, ends assumed
Residues (chain): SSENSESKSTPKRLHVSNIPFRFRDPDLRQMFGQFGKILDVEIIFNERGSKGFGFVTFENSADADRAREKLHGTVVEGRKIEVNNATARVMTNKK
Strand	RBNS enrichment (R)
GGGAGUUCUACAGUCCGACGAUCUUAAAUGAGCUCUUUUGCAGAUAGCACAUUCAGUAGCCUUAUUUUGUUGAUGGAAUACUGUAUCAUAUGCUCAACUCUGAAAACCUUGAACACGGCCAAAAUCCAUAAAGUGGAAUUCUCGGGUGCCAA	0.276
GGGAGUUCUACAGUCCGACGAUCUAUAUUCAAAGGAUAUUUAUAUUGGUGAUAUUUAAAUUAACACAGACAUGCAAAGCAUUCUUUUGCAUGUCUUUAUUUAAUUGUGGUUUUAUUAUCAAAAUUAUAUUUCUUGGAAUUCUCGGGUGCCAA	0.694
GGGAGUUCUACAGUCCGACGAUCUUUGUGUCUGUGACUCUUGUCUUCAUGGAGAUUCCAUUCUGACCCACUUCCUCAUGUCUAAACUGAAGGUGGGGUGUUUUUUUGUUGUUGUUGGUUUGGUUUGGUUUUGGUGGAAUUCUCGGGUGCCAA	2
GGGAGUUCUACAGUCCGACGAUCAUUUAGCACGUUAUAGGAAAUUAUAAGAGAUUAUAACCAAAUGGAGCGUUAUUAACCCAAAGCAGAACAAUGGUGCCAAUUUGAUUAUUAACUUAAAAAAAUAUACACUGUGGAAUUCUCGGGUGCCAA	0.511
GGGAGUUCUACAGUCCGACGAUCGCUCACUUUAUUAUCCCUAUUUUUAAAGUACACAAUUGUUUUACCUGUUCUGAAAUGUUCUUAAAUUUUGUAGGAUUUUUUUCCUCCCCACCUUCAAUGACUUCUAAUUUUGGAAUUCUCGGGUGCCAA	0.356
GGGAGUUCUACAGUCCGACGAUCGCUCCUGAAGAAGCUGUCUUCCCAUUUUCCAUGCGCUGUGCUUAUGUGUGGUGGACUGCAGAGCUGCUUCCACUUACAGGAGAGCUGAUAAUUUGUUAGCUGGAACCUAUUGGAAUUCUCGGGUGCCAA	0.341
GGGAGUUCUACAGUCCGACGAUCAAAAUAUAAAAACCCUGCCCAGUAGCAGUGGCAUCGCUUGGUUCCUGAUGCCCAUGUUCCAGAGGAAUUCGGAUACCACAAACAGCUAAGACAAUCUCAGCUUUUCUUAGUGGAAUUCUCGGGUGCCAA	0.417
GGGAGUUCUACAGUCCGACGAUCAAGAAAGGACUGUCCGUCUCCCUCUGUCUCCUCUCCCCCAAACCCAGCCUCCACCCGCACAAAGGGGCUCUAAAUCCCAGGCCUCAUCUCCCCACUGGCAGUCCGUGCUCUGGAAUUCUCGGGUGCCAA	1.11
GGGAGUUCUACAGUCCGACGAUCGGGCCAUGGGGCUUCUUGUGCCCUAAAGGGGACUGGCUGCUGUGAUCUUCUAAGGGGCCCAGGGCCAACCCUGUAGGCUUCCCCUCUGCUGGGGACGGUAGUUGCUUUUCUGGAAUUCUCGGGUGCCAA	0.4
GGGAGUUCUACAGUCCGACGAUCAUCCUUUUGUGUUCCAGCCUAGGCUAAGUGUUUGUGAAAGCCAUUUGUGAGUGCUUGGAGUGUUCUUCCUAAUAAACACACUUCAUGUCUUGUGUUGUCUUUUUCACUCAUGGAAUUCUCGGGUGCCAA	0.427
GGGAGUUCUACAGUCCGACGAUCAGCCUCCCGAGUAGCUGGGAUUAUGGGCGCCCACCACCAUGCCCAGCUAAUUUUUGUAUUUUUUUUUUUUAGUAGAGAUGGGGUUUCGCCAGGUUGGCCAGGCUGGUCUUUGGAAUUCUCGGGUGCCAA	1.7
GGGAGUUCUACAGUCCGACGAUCGUGUCUUAAGGAGACUGGUAGGAGGAGGCAUGGAAACCAAAAGGCCGUGUGUUUAGAAGCCUAAUUGUCACAUCAAGCAUCAUUGUCCCCAUGCAACAACCACCACCUUAUGGAAUUCUCGGGUGCCAA	0.581

Set 2 — technique: aptamer microarray, sandwich; molecule type: DNA with 2'F-ANA; medium: in vitro; concentration: 200 nM; added: Cy3 exosite-II aptamer, 400 nM; reading: higher = stronger binding; strand: GGTTGGTGTGGTTGG
Target: Prothrombin, mature alpha-thrombin (F2, Homo sapiens, UniProt P00734)
Notes: whole 15-mer aptamer, many near background
Modification	mean fluorescence intensity
2'F-ANA at 1 4 7 8 12 13 15	276 a.u.
2'F-ANA at 1 2 6 7 9 12 13 14	58.7 a.u.
2'F-ANA at 3 5 6 8 11 12 14 15	75.2 a.u.
2'F-ANA at 1 3 4 7 8 10 11 12 13	68 a.u.
2'F-ANA at 1 2 3 5 8 9 10 13	114 a.u.
2'F-ANA at 1 3 5 6 7 8 13 14 15	47.7 a.u.
2'F-ANA at 4 6 9 11	209 a.u.
2'F-ANA at 1 2 3 4 5 7 8 10 12 13 14 15	50.3 a.u.
2'F-ANA at 1 3 9 10 13	75.4 a.u.
2'F-ANA at 3 4 5 9 10 11 12 13	56.3 a.u.
2'F-ANA at 2 3 4 6 8 9 12 15	808 a.u.
2'F-ANA at 1 2 3 5 6 11 14 15	49.1 a.u.
2'F-ANA at 1 2 3 5 6 7 13 15	51.1 a.u.
2'F-ANA at 4 5 6 9 10 11 13 14	47.3 a.u.
2'F-ANA at 1 5 7 8 14 15	61.9 a.u.
2'F-ANA at 2 3 4 7 8 11 12 13	633 a.u.
2'F-ANA at 1 3 5 6 9 10 11 12 14	48.3 a.u.
2'F-ANA at 1 2 3 4 7 8 14	90.5 a.u.
2'F-ANA at 1 3 4 5 7 8 13	62.3 a.u.
2'F-ANA at 3 5 6 8 10 11 12 15	101 a.u.
2'F-ANA at 1 4 8 9 11 13 15	80.7 a.u.
2'F-ANA at 2 3 4 5 11 14	50 a.u.
2'F-ANA at 3 4 5 8 9 10 13 15	48.4 a.u.
2'F-ANA at 1 4 5 9 10 11 12 13 14	47.8 a.u.
2'F-ANA at 2 3 6 7 9 10 11 12 13	314 a.u.

Set 3 — technique: protein binding microarray; molecule type: double-stranded DNA, one strand shown; medium: in vitro; concentration: not given; relative to: not given; reading: higher = stronger binding
Target: Histone acetyltransferase KAT6A, both winged helices, GST fusion (KAT6A, Homo sapiens, UniProt Q92794, residues 1-181)
Notes: 8-mer, flanks averaged, mean of 2 arrays, mostly near background
Residues (chain): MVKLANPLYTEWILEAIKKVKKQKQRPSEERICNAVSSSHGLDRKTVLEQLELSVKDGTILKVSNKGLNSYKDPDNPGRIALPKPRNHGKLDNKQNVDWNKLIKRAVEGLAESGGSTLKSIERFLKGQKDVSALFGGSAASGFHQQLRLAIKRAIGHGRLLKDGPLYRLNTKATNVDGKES
Strand	E-score
CGGCCTCA	0.157
CAGTATAG	-0.0497
ATGCTTCA	0.0059
AGCGCCCG	0.249
CTGGAATA	-0.131
GCTTAGAC	0.0755
ATGCTGGG	-0.203
TGAGCGAA	0.148
AGTGTTCC	-0.0152
GCCGCCAA	0.215
AGACGGCT	0.196
CTAGCCAC	-0.0956
ATTGGGCG	-0.057
AACCTCGT	0.0674
AACAGGCC	-0.0751
CAAATCTA	-0.0957
CCGACGAG	0.0833
CTTGTTCC	0.0125
AGCCGTAT	0.2
AGACTCAT	-0.0924
GGAGTACA	-0.0347
TCGCGTAA	0.206

Set 4 — technique: RNA Bind-n-Seq; molecule type: RNA; medium: in vitro; concentration: 200 nM; notes: whole 134-nt RNA, ends assumed; added: 150 mM LiCl; relative to: input library; reading: higher = stronger binding; all molecules: 7-deaza-guanosine replaces G
Target: Ras GTPase-activating protein-binding protein 1, full length (G3BP1, Homo sapiens, UniProt Q13283)
UniProt Q13283, sequence (whole entry, looked up): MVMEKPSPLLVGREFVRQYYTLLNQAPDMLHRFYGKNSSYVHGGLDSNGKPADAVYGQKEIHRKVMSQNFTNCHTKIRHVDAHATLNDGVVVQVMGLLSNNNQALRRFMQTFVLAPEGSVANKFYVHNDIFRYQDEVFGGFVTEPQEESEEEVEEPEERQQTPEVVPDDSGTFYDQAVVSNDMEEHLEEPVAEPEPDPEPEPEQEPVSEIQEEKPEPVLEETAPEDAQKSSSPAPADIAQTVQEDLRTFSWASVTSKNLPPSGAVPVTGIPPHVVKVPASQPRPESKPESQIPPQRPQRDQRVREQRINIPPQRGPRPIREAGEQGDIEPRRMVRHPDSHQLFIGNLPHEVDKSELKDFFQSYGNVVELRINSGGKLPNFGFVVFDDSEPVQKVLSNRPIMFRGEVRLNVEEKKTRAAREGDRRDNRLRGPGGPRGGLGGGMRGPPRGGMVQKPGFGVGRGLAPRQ
Strand	log2 enrichment
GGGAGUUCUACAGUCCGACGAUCUCCUGUGCUACACAUCGUAUGUACCGAAUCGGGGAAAAAGGGGAAAGGGGAAAAAGGGGAAAGUAUUAUGUUACGCCGUUCGGAUCUGCAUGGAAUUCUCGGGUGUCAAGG	0.193
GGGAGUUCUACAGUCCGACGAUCGUCCUGUGCUACACAUCGUAUGUACCGAAUCGGGGAAAAAAAGGGGAGGGGAAAGGGGAAAGUAUUAUGUUACGCCGUUCGGAUCUGCACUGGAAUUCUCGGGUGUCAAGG	0.366
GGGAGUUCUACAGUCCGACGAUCUGUGCUACACAUCGUAUGUACCGAAUCGGGGCCCCCCCGGGGCCCCCCCGGGGCCCCCCCGGAAAGUAUUAUGUUACGCCGUUCGGAUCUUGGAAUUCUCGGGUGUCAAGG	-0.567
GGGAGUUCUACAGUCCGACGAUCUUGAUGUUAGUAAAUUUGGUGUAAUACGUGGGGCUUCCAUAUUUCAAAGUGGAAGCUUUCUUCUCUGAAGUCGAUAUAUGGUUUUGAAUUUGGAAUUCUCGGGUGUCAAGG	-0.521
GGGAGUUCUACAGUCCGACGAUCGUCCUGUGCUACACAUCGUAUGUACCGAAUCGGGGAGGGGUUUGGGGAAAAAAAGGGGAAAGUAUUAUGUUACGCCGUUCGGAUCUGCACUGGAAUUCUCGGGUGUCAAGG	-0.652
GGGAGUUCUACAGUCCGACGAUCCAAGUCCUGUGCUACACAUCGUAUGUACCGAAUCGGUGGUUUUUUUGGUUUUUGGAAAGUAUUAUGUUACGCCGUUCGGAUCUGCACUUCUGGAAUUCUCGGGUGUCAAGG	-0.502
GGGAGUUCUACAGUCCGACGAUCAAGUCCUGUGCUACACAUCGUAUGUACCGAAUCAAAUUUUUAAAUUUAAACCCAAAAAAGUAUUAUGUUACGCCGUUCGGAUCUGCACUUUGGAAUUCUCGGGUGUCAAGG	0.266
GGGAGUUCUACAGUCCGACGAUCAGUCCUGUGCUACACAUCGUAUGUACCGAAUCAAACCCAAACCCCCAAAUUUUUAAAAAAGUAUUAUGUUACGCCGUUCGGAUCUGCACUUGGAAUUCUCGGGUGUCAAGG	1.19
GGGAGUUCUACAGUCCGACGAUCCUGUGCUACACAUCGUAUGUACCGAAUCGGGUUUUUUGGGGUUUUUUGGGGUUUUUUGGGGAAAGUAUUAUGUUACGCCGUUCGGAUCUGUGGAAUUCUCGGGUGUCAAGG	1.42
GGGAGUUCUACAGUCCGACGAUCUGUGCUACACAUCGUAUGUACCGAAUCGGGUUUUUUUGGGGUUUUUUUGGGGUUUUUUUGGGGAAAGUAUUAUGUUACGCCGUUCGGAUCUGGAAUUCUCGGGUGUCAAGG	2.02
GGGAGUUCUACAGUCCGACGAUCGUCCUGUGCUACACAUCGUAUGUACCGAAUCGGGUUUUUUUGGGUUUUUGGGUUUGGGAAAGUAUUAUGUUACGCCGUUCGGAUCUGCACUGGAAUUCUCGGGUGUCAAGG	0.305

Excerpt of the above (set 2):
Modification	mean fluorescence intensity
2'F-ANA at 3 4 5 9 10 11 12 13	56.3 a.u.
2'F-ANA at 3 5 6 8 10 11 12 15	101 a.u.
2'F-ANA at 3 5 6 8 11 12 14 15	75.2 a.u.
2'F-ANA at 1 3 5 6 7 8 13 14 15	47.7 a.u.
